Measured values collected from several papers.
Compare with care: the assays were run in different laboratories. “And” joins repeats or separate records; there may be more than shown. ± marks the error that the study gave.
rep main protease: Replicase polyprotein 1ab, main protease (rep, Severe acute respiratory syndrome coronavirus 2, UniProt P0DTD1)

With `Nc1ncnc2c([C@@H]3N[C@H](CO)[C@@H](O)[C@H]3O)c[nH]c12` the inhibition was 42% (Marburg virus; viral replication; HeLa, Musoke; 3.1 µM).
For `Clc1ccccc1C1(c2ccnc(-c3ccccc3)n2)CCNCC1`, the AC50 was 14.1 µM (SARS-CoV-2; cytopathic effect, cell-based CPE; USA_WA1/2020; round 1, 5-point dilution).
For `CN(C)C(=O)c1cc2cnc(Nc3ccc(N4CCNCC4)cn3)nc2n1C1CCCC1`, the EC50 was > 100 µM (SARS-CoV-2; viral replication, high-content imaging screen; cell-based).
With `Cc1ccnc2c1NC(=O)c1cccnc1N2C1CC1` the IC50 was > 2 µM (SARS-CoV-2; viral replication; Huh-7).
Under “viral replication inhibition”, `O=c1c(O)c(-c2ccc(O)c(O)c2)oc2cc(O)cc(O)c12` is recorded as “inactive” (SARS-CoV-2; Vero E6; concentration not given, NYC laboratory).
`Cc1ccc2nc(C3CCCN(Cc4cccc(-c5cccnc5)c4)C3)[nH]c(=O)c2c1` (stereo not drawn) gave an efficacy of 82.7% (SARS-CoV-2; cytopathic effect; USA_WA1/2020; round 2, 5-point).
`O=C[C@H](C[C@@H]1CCNC1=O)NC(=O)[C@H](CC1CCCCC1)NC(=O)c1cc2ccccc2[nH]1` has an AUC of 32400 ng·h/mL (dog, plasma; intravenous, 16 mg/kg).
`CN(C)C(=N)N=C(N)N` — result for “viral RNA level”: 0.234 and 0.252 (SARS-CoV-2; SB2; 500 µM, unit not given; baseline: DMSO).
With `CCN(CC)CCCNC(=O)c1ccc(-c2nc(CN3CCc4ccccc43)c(C)o2)cc1` the AC50 was 12.6 µM (SARS-CoV-2; cytopathic effect, cell-based CPE; USA_WA1/2020; round 2, 5-point dilution).
For `CC(C)C[C@@H]1NC(=O)[C@H](Cc2cn(Cc3ccc(Br)cc3)c3ccccc23)N(C)C(=O)[C@H](CC(C)C)NC(=O)[C@H](CC(C)C)N(C)C(=O)[C@H](CC(C)C)NC(=O)[C@@H](CCC#N)OC(=O)[C@H](C)N(C)C1=O`, activity class read “active” (SARS-CoV-2; viral replication; Vero E6; concentration not given).
The maximum response of `CCN(CC)CCNC(=O)c1ccc(-c2nc(CN3CCc4ccccc43)c(C)o2)cc1` is reported as 98.1% (SARS-CoV-2; cytopathic effect; USA_WA1/2020; round 2, 5-point).
`COc1ccc(C[C@@H]2c3cc(Oc4cc(C[C@@H]5c6cc(O)c(OC)cc6CCN5C)ccc4O)c(OC)cc3CCN2C)cc1` has a mean inhibition of 0% (SARS-CoV-2; viral cytopathic effect; Vero E6; 12.5 µM).
For `CC[C@H](C)[C@H](NC(=O)[C@H](CC(C)C)NC(=O)[C@H](Cc1c[nH]c2ccccc12)NC(=O)[C@H](CCC(N)=O)NC(=O)[C@@H](NC(=O)[C@H](Cc1ccccc1)NC(=O)[C@H](C)NC(=O)[C@H](CCCCNC(=O)COCCOCCNC(=O)COCCOCCNC(=O)CC[C@H](NC(=O)CCCCCCCCCCCCCCCCCCC(=O)O)C(=O)O)NC(=O)[C@H](CCC(N)=O)NC(=O)[C@H](C)NC(=O)[C@@H](NC(=O)[C@H](CCCCN)NC(=O)[C@H](CC(=O)O)NC(=O)[C@H](CC(C)C)NC(=O)C(C)(C)NC(=O)[C@@H](NC(=O)[C@H](CO)NC(=O)[C@H](Cc1ccc(O)cc1)NC(=O)[C@H](CC(=O)O)NC(=O)[C@H](CO)NC(=O)[C@@H](NC(=O)[C@H](Cc1ccccc1)NC(=O)[C@@H](NC(=O)CNC(=O)[C@H](CCC(=O)O)NC(=O)C(C)(C)NC(=O)[C@@H](N)Cc1ccc(O)cc1)[C@@H](C)O)[C@@H](C)O)[C@@H](C)CC)[C@@H](C)CC)C(C)C)C(=O)N[C@@H](C)C(=O)NCC(=O)NCC(=O)N1CCC[C@H]1C(=O)N[C@@H](CO)C(=O)N[C@@H](CO)C(=O)NCC(=O)N[C@@H](C)C(=O)N1CCC[C@H]1C(=O)N1CCC[C@H]1C(=O)N1CCC[C@H]1C(=O)N[C@@H](CO)C(N)=O`, the serum lipase was 30.2 ± 22.3 U/L (healthy subjects, single ascending dose; 1.0 mg, day 29).
`Cc1cccc(/C=N/Nc2cc(N3CCOCC3)nc(OCCc3ccccn3)n2)c1` gave an EC90 of 0.0374 µM (SARS-CoV-2; viral replication; 293T-ACE2, USA-WA1/2020).
For `COc1ccc(N2CCN(CCCNC(=O)c3cc(Nc4ccc(OC)cc4OC)nc4ccccc34)CC2)cc1`, the efficacy was 46.7% (SARS-CoV-2; cytopathic effect; USA_WA1/2020; retest, 8-point, duplicates).
The viral titre of `Cc1nn(-c2ccc(Cl)cc2)c2c1C(c1c(Cl)cccc1Cl)C(C#N)=C(N)O2` (stereo not drawn) is reported as 1e+06 IU/mL (SARS-CoV-2; Vero; 1 µM).
For `O=C(c1cccc(CF)c1)N1CCCCC[C@@H](Nc2nc(-c3cccnc3)nc3c2CCC3)C1`, the inhibition was 12.4% (rep main protease; enzyme activity, inhibitor; 5 µM, run 2).
For `CC[C@H](C)C[C@H](C)CCCCCCCCC(=O)N[C@H]1C[C@@H](O)[C@@H](NCCN)NC(=O)[C@@H]2[C@@H](O)CCN2C(=O)[C@H]([C@H](O)CCN)NC(=O)[C@H]([C@H](O)[C@@H](O)c2ccc(O)cc2)NC(=O)[C@@H]2C[C@@H](O)CN2C(=O)[C@H]([C@@H](C)O)NC1=O`, the selectivity index was 1 (SARS-CoV-2; Vero; baseline: CC50 over IC50).
For `CC(C)C[C@H](NC(=O)[C@H](CCc1ccccc1)NC(=O)CN1CCOCC1)C(=O)N[C@@H](Cc1ccccc1)C(=O)N[C@@H](CC(C)C)C(=O)[C@@]1(C)CO1`, the inhibition was -5.27% (rep main protease; reporter gene (Gaussia luciferase), inhibitor; 20 µM).
`COCC12CN(S(=O)(=O)c3ccc4cc(Cl)ccc4c3)CC(=O)N1CC1(CCN(c3ccncc3)CC1)O2` (stereo not drawn) gave an inhibition of 49.3% (SARS-CoV-2; viral replication; Vero E6, USA-WA1/2020; 2.5 µM).
`CN(C)CC/C=C1/c2ccccc2Sc2ccc(Cl)cc21` gave an EC50 of > 100 µM (SARS-CoV-2; viral replication, high-content imaging screen; cell-based).
For `CCCN(CCC)CCc1ccc(OC)c(OCCc2ccccc2)c1`, the IC50 was 3.72 µM (SARS-CoV-2; viral replication, anti-nucleoprotein immunostaining; Vero E6).
For `CC[C@H](NC(=O)[C@H](CS(=O)(=O)CC1CC1)N[C@@H](c1ccc(F)cc1)C(F)(F)F)C(=O)C(=O)NC1CC1`, the EC90 was > 2.5 µM (SARS-CoV-2; viral replication; Huh-7-ACE2, USA-WA1/2020).
`CC[C@@H](C(=O)[C@@H](C)[C@@H](O)[C@H](C)CCc1ccc(C)c(O)c1C(=O)O)[C@H]1O[C@](CC)([C@H]2CC[C@](O)(CC)[C@H](C)O2)C[C@@H]1C` has an EC50 of 1.07 µM (SARS-CoV-2; viral replication, high-content imaging screen; cell-based).
`Cc1nn(-c2ccc(Cl)cc2)c2c1C(c1ccc(Cl)cc1)C(C#N)=C(N)O2` (stereo not drawn) has a viral titre of 920000 IU/mL (SARS-CoV-2; Vero; 1 µM).
`CC(C)=CCc1c(O)ccc(C(=O)/C=C/c2ccc(O)cc2)c1O` gave a mean inhibition of 0% (SARS-CoV-2; cytopathic effect; Vero E6; 0.7812 µM, replicate run).
`Cc1cc(OCCN2CCOCC2)nn1-c1ccc2ccccc2c1` — result for “viral replication inhibition”: “inactive” (SARS-CoV-2; concentration not given, Paris laboratory).
With `Cc1ccccc1CN1C(=O)c2ccccc2Sc2ccc(C(=O)NCCCN3CCOCC3)cc21` the efficacy was 68.7% (SARS-CoV-2; cytopathic effect; USA_WA1/2020; round 1, 5-point).
`CC(C)(C)NCc1ccc(Nc2ccnc3cc(Cl)ccc23)cc1O` has an EC90 of > 2.5 µM (SARS-CoV-2; viral replication; Huh-7-ACE2, USA-WA1/2020).
`COc1ccc2c(c1)N(C[C@H](C)CN(C)C)c1ccccc1S2` gave an EC50 of > 100 µM (SARS-CoV-2; viral replication, GFP plate reader screen; cell-based).
`O=C(O)c1cc(Oc2ccc([N+](=O)[O-])cc2)cc(Oc2ccc([N+](=O)[O-])cc2)c1` has an inhibition of 3.11% (rep main protease; reporter gene (Gaussia luciferase), inhibitor; 20 µM).
`O=C(O[C@@H]1Cc2c(O)cc(O)cc2O[C@@H]1c1cc(O)c(O)c(O)c1)c1cc(O)c(O)c(O)c1` gave a CPE inhibition of 0% (SARS-CoV-2; viral replication; Vero E6; 6.25 µM; baseline: mean of replicates).
For `CN(C)CCNC(=O)c1ccc2c(c1)C1(CCN(CC3CC3)C1)CN2Cc1ccccc1` (stereo not drawn), the efficacy was 96.9% (SARS-CoV-2; cytopathic effect; USA_WA1/2020; round 2, 5-point).
`CCN1CCCC1CNC(=O)c1cc(S(=O)(=O)CC)c(N)cc1OC` (stereo not drawn) gave an IC50 of > 10 µM (SARS-CoV-2; viral replication, RT-qPCR; A549 expressing ACE2).
For `CN1CCN(CC/C=C2/c3ccccc3Sc3ccc(S(=O)(=O)N(C)C)cc32)CC1`, the EC50 was > 100 µM (SARS-CoV-2; viral replication, GFP plate reader screen; cell-based).
`Cc1nn(-c2ccc(Cl)cc2)c2c1C(c1ccc(Cl)c(Cl)c1)C(C#N)=C(N)O2` (stereo not drawn) has a Ct value of 24.8 cycles (SARS-CoV-2; RT-qPCR, measured: viral RNA; Vero; 10 µM; higher means less virus).
The selectivity index of `Nc1ncnc2c1nnn2[C@@H]1C(F)=C(CO)[C@@H](O)[C@H]1O` is reported as > 8.2 (SARS-CoV-2; spike protein immunostaining; Vero; baseline: CC50 over EC50).
The IC50 of `CC(=O)OCC(=O)[C@@]1(O)CC[C@H]2[C@@H]3CCC4=CC(=O)CC[C@]4(C)[C@@]3(F)[C@@H](O)C[C@@]21C` is reported as > 2 µM (SARS-CoV-2; viral replication; Huh-7).
For `Cn1cnc(Cn2c(=O)[nH]/c(=N\c3cc4cn(C)nc4cc3Cl)n(Cc3cc(F)c(F)cc3F)c2=O)n1`, “dry mouth TEAE, Moderate severity” read 0% (human, mild renal impairment; oral, 375 mg).
The CPE inhibition of `O=C(/C=C/c1ccc(O)c(O)c1/C=C/c1ccc(O)c(O)c1)O[C@H](Cc1ccc(O)c(O)c1)C(=O)O` is reported as 0% (SARS-CoV-2; viral replication; Vero E6; 25 µM; baseline: mean of replicates).
The IC50 of `CN1CCN(CCc2ccc(Cl)c(Cl)c2)CC1` is reported as > 10 µM (SARS-CoV-2; viral replication; Vero E6; inactive set pIC50 4).
`CC(C)(C)[C@H](NC(=O)C(F)(F)F)C(=O)N1C[C@H]2[C@@H]([C@H]1C(=O)N[C@H](C#N)C[C@@H]1CCNC1=O)C2(C)C` gave an inhibition of 1.84% and 4.11% (SARS-CoV-2; viral replication; Vero E6; 0.0002 µM).
For `CCOc1ccc(NC(=O)c2cnn(-c3ccc(C)c(Cl)c3)c2C2CCNCC2)cc1`, the maximum response was 88.9% (SARS-CoV-2; cytopathic effect; USA_WA1/2020; round 1, 5-point).
The EC50 of `CN(C)CCCN1c2ccccc2Sc2ccccc21` is reported as 16.2 µM (SARS-CoV-2; viral replication, GFP plate reader screen; cell-based).
`CNC(=O)[C@@H](NC(=O)[C@H](CC(C)C)[C@H](O)C(=O)NO)C(C)(C)C` gave an inhibition of 17% and 18% and 17.5% (prothrombin time; human platelet-poor plasma; 10 µM, added: GA venom).
`CC1(C)CCC(c2ccc(Cl)cc2)=C(CN2CCN(c3ccc(C(=O)NS(=O)(=O)c4ccc(N[C@H](CCN5CCOCC5)CSc5ccccc5)c(S(=O)(=O)C(F)(F)F)c4)cc3)CC2)C1` gave an EC50 of > 100 µM (SARS-CoV-2; viral replication, high-content imaging screen; cell-based).
`Cc1sc2c(c1C)C(c1ccc(Cl)cc1)=N[C@@H](CC(=O)OC(C)(C)C)c1nnc(C)n1-2`: “viral replication inhibition” “inactive” (SARS-CoV-2; concentration not given, Paris laboratory).
`CN(C(=O)CN(CCO)CC(=O)N(C)C(C)(C)Cc1ccccc1)C(C)(C)Cc1ccccc1` has an EC50 of > 100 µM (SARS-CoV-2; viral replication, high-content imaging screen; cell-based).
`O=C1[C@H](CC[C@H](O)c2ccc(F)cc2)[C@@H](c2ccc(O)cc2)N1c1ccc(F)cc1` gave an IC50 of > 2 µM (SARS-CoV-2; viral replication; Huh-7).
The viral titre of `Cc1nn(-c2ccc(Cl)cc2)c2c1C(c1ccc(Br)cc1)C(C#N)=C(N)O2` (stereo not drawn) is reported as 948000 IU/mL (SARS-CoV-2; Vero; 1 µM).
`Fc1ccc(-n2cc(CCCCN3CCC4(CC3)OCc3ccccc34)c3ccccc32)cc1` gave an IC50 of 1.02 µM (SARS-CoV-2; viral replication, anti-nucleoprotein immunostaining; Vero E6).

Some of these lines once more:
For `O=C(c1cccc(CF)c1)N1CCCCC[C@@H](Nc2nc(-c3cccnc3)nc3c2CCC3)C1`, the inhibition was 12.4% (rep main protease; enzyme activity, inhibitor; 5 µM, run 2).
For `CC[C@H](C)C[C@H](C)CCCCCCCCC(=O)N[C@H]1C[C@@H](O)[C@@H](NCCN)NC(=O)[C@@H]2[C@@H](O)CCN2C(=O)[C@H]([C@H](O)CCN)NC(=O)[C@H]([C@H](O)[C@@H](O)c2ccc(O)cc2)NC(=O)[C@@H]2C[C@@H](O)CN2C(=O)[C@H]([C@@H](C)O)NC1=O`, the selectivity index was 1 (SARS-CoV-2; Vero; baseline: CC50 over IC50).
For `CC(C)C[C@H](NC(=O)[C@H](CCc1ccccc1)NC(=O)CN1CCOCC1)C(=O)N[C@@H](Cc1ccccc1)C(=O)N[C@@H](CC(C)C)C(=O)[C@@]1(C)CO1`, the inhibition was -5.27% (rep main protease; reporter gene (Gaussia luciferase), inhibitor; 20 µM).
`COCC12CN(S(=O)(=O)c3ccc4cc(Cl)ccc4c3)CC(=O)N1CC1(CCN(c3ccncc3)CC1)O2` (stereo not drawn) gave an inhibition of 49.3% (SARS-CoV-2; viral replication; Vero E6, USA-WA1/2020; 2.5 µM).
